Assay results gathered from unrelated publications.
Compare with care: the assays were run in different laboratories. Numbers after ± are the reported error.
Target: Prothrombin (F2, Homo sapiens, UniProt P00734)

COC(=O)C[C@H](NC(=O)C(NC(=O)OCc1ccccc1)C(C)C)C(=O)CF (stereo partly shown) gave a Ki of > 200000 nM (inhibitor).
The Ki of CC[C@H](C)[C@H](NC(=O)[C@@H]1CCCN1C(=O)[C@H](CCC(=O)O)NC(=O)[C@H](CCSC)NC(=O)CNC(=O)[C@H](CC(N)=O)NC(=O)CNC(=O)CNC(=O)[C@H](CCC(=O)O)NC(=O)CNC(=O)[C@H](CCCNC(=N)N)NC(=O)[C@H](CCC(N)=O)NC(=O)[C@H](Cc1ccc(O)cc1)NC(=O)[C@H](CC(C)C)NC(=O)[C@H](CCCCN)NC(=O)[C@@H]1CCCN1C(=O)[C@H](CCC(N)=O)NC(=O)[C@H](C)NC(=O)[C@@H](NC(=O)[C@H](CCC(=O)O)NC(=O)[C@H](C)NC(=O)[C@H](CCC(=O)O)NC(=O)[C@@H](NC(=O)[C@@H]1CCCN1C(=O)[C@@H](N)CCCCN)C(C)C)C(C)C)C(=O)N1CCC[C@H]1C(=O)N[C@@H](CCC(=O)O)C(=O)N[C@@H](CC(=O)O)C(=O)N[C@@H](Cc1ccc(O)cc1)C(=O)N[C@@H](CC(C)C)C(=O)N[C@@H](CC(N)=O)C(=O)N[C@@H](CCC(=O)O)C(=O)N[C@@H](C)C(=O)N[C@@H](CC(C)C)C(=O)N[C@@H](CC(N)=O)C(=O)N[C@@H](C)C(=O)O is reported as 0.503 nM (enzyme activity, inhibitor, absorbance; pH 8).
With CC(C)C[C@H](NC(=O)[C@H](CC(C)C)NC(=O)[C@H](CCCNC(=N)N)NC(=O)CNC(=O)[C@@H]1CCCN1C(=O)[C@H](CC(=O)O)NC(=O)[C@H](CCCNC(=N)N)NC(=O)[C@H](C)NC(=O)[C@H](CO)NC(=O)[C@H](CC(=O)O)NC(=O)[C@H](Cc1ccc(O)cc1)NC(=O)[C@H](CCCNC(=N)N)NC(=O)[C@H](CC(=O)O)NC(=O)[C@H](Cc1ccccc1)NC(=O)[C@@H](N)Cc1ccccc1)C(=O)O the Kd was 170 ± 40 nM (binding, double-filter binding; 1 h, room temperature).
For CC(C)[C@H](NC(=O)COCC(=O)NCCCOCCOCCOCCCNC(=O)CCCC[C@@H]1SC[C@@H]2NC(=O)N[C@@H]21)C(=O)NC(c1ccc(C(=N)N)cc1)P(=O)(Oc1ccccc1)Oc1ccccc1 (stereo partly shown), the IC50 was 280 nM (enzyme activity, inhibitor, fluorescence).
CC[C@H](C)[C@H](NC(=O)[C@@H]1CCCN1C(=O)[C@H](CCC(=O)O)NC(=O)[C@H](CCSC)NC(=O)CNC(=O)[C@H](CC(N)=O)NC(=O)CNC(=O)CNC(=O)[C@H](CCC(=O)O)NC(=O)CNC(=O)[C@H](CCCNC(=N)N)NC(=O)[C@H](CCC(N)=O)NC(=O)[C@H](Cc1ccc(O)cc1)NC(=O)[C@H](CC(C)C)NC(=O)[C@H](CCCCN)NC(=O)[C@@H]1CCCN1C(=O)[C@H](CCC(N)=O)NC(=O)[C@H](C)NC(=O)[C@@H](NC(=O)[C@H](CCC(=O)O)NC(=O)[C@H](C)NC(=O)[C@H](CCC(=O)O)NC(=O)[C@@H](NC(=O)[C@@H]1CCCN1C(=O)[C@@H](N)CCCCN)C(C)C)C(C)C)C(=O)N1CCC[C@H]1C(=O)N[C@@H](CCC(=O)O)C(=O)N[C@@H](CC(=O)O)C(=O)N[C@H](C(=O)N[C@@H](CC(C)C)C(=O)N[C@@H](CC(N)=O)C(=O)N[C@@H](CCC(=O)O)C(=O)N[C@@H](C)C(=O)N[C@@H](CC(C)C)C(=O)N[C@@H](CC(N)=O)C(=O)N[C@@H](C)C(=O)O)C(C)C gave a Ki of 0.0282 nM (enzyme activity, inhibitor, absorbance; pH 8).
The Ki of O=C(N[C@@H](Cc1ccccc1)C(=O)CCl)OCc1ccccc1 is reported as > 100000 nM.
The Ki of CC[C@H](C)[C@H](NC(=O)[C@@H]1CSSC[C@H](NC(=O)[C@H](Cc2ccc(O)cc2)NC(=O)CN)C(=O)N[C@@H](CO)C(=O)N[C@@H](CCCNC(=N)N)C(=O)N[C@@H](CO)C(=O)N[C@@H](Cc2ccc(O)cc2)C(=O)N2CCC[C@H]2C(=O)N2CCC[C@H]2C(=O)N[C@@H](C(C)C)C(=O)N1)C(=O)N1CCC[C@H]1C(=O)N[C@@H](CC(=O)O)C(N)=O is reported as 258000 nM (enzyme activity, inhibitor).
CSCC[C@H](NC(=O)[C@@H](N)Cc1ccc(O)cc1)C(=O)N[C@@H](CO)C(=O)N[C@@H](Cc1ccccc1)C(=O)N[C@H](C(=O)N[C@@H](CCCNC(=N)N)C(=O)N[C@@H](CCCNC(=N)N)C(=O)N[C@H](C(=O)N[C@@H](CCC(=O)O)C(=O)N[C@@H](CO)C(=O)N[C@@H](CC(=O)O)C(=O)N[C@@H](CCCCN)C(=O)N[C@@H](CC(C)C)C(=O)N[C@@H](Cc1c[nH]cn1)C(=O)N[C@@H](CO)C(=O)O)[C@@H](C)O)[C@@H](C)O gave a Kd of 310 nM (binding, double-filter binding; 1 h, room temperature).
The Ki of CC[C@H](C)[C@H](NC(=O)[C@@H]1CSSC[C@H](NC(=O)[C@H](Cc2ccc(O)cc2)NC(=O)CNC(C)=O)C(=O)N[C@@H](CO)C(=O)N[C@@H](CCCNC(=N)N)C(=O)N[C@@H](CO)C(=O)N[C@@H](Cc2ccc(O)cc2)C(=O)N2CCC[C@H]2C(=O)N2CCC[C@H]2C(=O)N[C@@H](C(C)C)C(=O)N1)C(=O)N1CCC[C@H]1C(=O)N[C@@H](CC(=O)O)C(=O)O is reported as 434000 nM (enzyme activity, inhibitor).
The Ki of CC(C)(C)OC(=O)C[C@H](NC(=O)OCc1ccccc1)C(=O)CBr is reported as > 200000 nM.

A few entries again:
The Ki of CC[C@H](C)[C@H](NC(=O)[C@@H]1CCCN1C(=O)[C@H](CCC(=O)O)NC(=O)[C@H](CCSC)NC(=O)CNC(=O)[C@H](CC(N)=O)NC(=O)CNC(=O)CNC(=O)[C@H](CCC(=O)O)NC(=O)CNC(=O)[C@H](CCCNC(=N)N)NC(=O)[C@H](CCC(N)=O)NC(=O)[C@H](Cc1ccc(O)cc1)NC(=O)[C@H](CC(C)C)NC(=O)[C@H](CCCCN)NC(=O)[C@@H]1CCCN1C(=O)[C@H](CCC(N)=O)NC(=O)[C@H](C)NC(=O)[C@@H](NC(=O)[C@H](CCC(=O)O)NC(=O)[C@H](C)NC(=O)[C@H](CCC(=O)O)NC(=O)[C@@H](NC(=O)[C@@H]1CCCN1C(=O)[C@@H](N)CCCCN)C(C)C)C(C)C)C(=O)N1CCC[C@H]1C(=O)N[C@@H](CCC(=O)O)C(=O)N[C@@H](CC(=O)O)C(=O)N[C@@H](Cc1ccc(O)cc1)C(=O)N[C@@H](CC(C)C)C(=O)N[C@@H](CC(N)=O)C(=O)N[C@@H](CCC(=O)O)C(=O)N[C@@H](C)C(=O)N[C@@H](CC(C)C)C(=O)N[C@@H](CC(N)=O)C(=O)N[C@@H](C)C(=O)O is reported as 0.503 nM (enzyme activity, inhibitor, absorbance; pH 8).
